Published values of several laboratories.
Lines come from different studies, so protocols differ.
Target: Interleukin-1 receptor-associated kinase 3 (IRAK3, Homo sapiens, UniProt Q9Y616)

| SMILES | test | setting | scale | quantity | value |
| --- | --- | --- | --- | --- | --- |
| CC(C)=CC1OC(C)(C)C2C=C3C(=O)C(Cl)=CC(O)C3C3C(O)C4OC4C(=O)C132 (stereo not shown) | cell-free assay, competition with immobilised ligand | 10 µM |  | remaining binding | 93% |
| CNC1C[S+]2CC[S+]3CC[S+](C1)[Ru-4]321([N]=C=S)[n]2c3ccc(OC)cc3c3c4c(c5cc(F)c[n+]1c5c32)C(=O)NC4=O (stereo not shown) | KinomeScan | 0.1 µM | relative to: untreated | remaining binding | 71% |
| Cc1ccc(-c2c(/C=C(\C#N)C(=O)NC(C)C)n(CCCO)c3ncnc(N)c23)cc1 | cell-free assay, competition with immobilised ligand | 1 µM |  | remaining binding | 34% |
| C=CC(=O)N1CCc2ccc(-n3c(=O)ccc4cnc5ccc(-c6cnn(C)c6)cc5c43)cc21 | KINOMEscan | 1 µM | relative to: DMSO control | remaining binding | 65% |
| CCN1CCN(Cc2ccc(C(=O)Nc3ccc(C)c(NCc4cnc5[nH]ccc5c4OC)c3)cc2C(F)(F)F)CC1 | binding, competition with immobilised ligand | 1 µM |  | remaining binding | 100% |
| C=CC(=O)N1CCCC(n2c(=O)c3ncccc3n(Cc3ccc(Oc4ccccc4)cc3)c2=O)C1 (stereo not shown) | cell-free assay, competition with immobilised ligand | 1 µM |  | remaining binding | 100% |
| C=CC(=O)N1Cc2nc(-c3cc(-c4cc(Cl)cnc4Cl)c(F)cc3F)n(-c3ccncn3)c2C1 | cell-free assay, inhibitor | 1 µM |  | inhibition | -1.3% |
| CNC(=O)C1CCN(c2cc(C)c(F)cc2NC(=O)c2ccc(-c3cc(O)ccc3C)c(C)c2)CC1 | binding, competition with immobilised ligand | 1 µM |  | remaining binding | 83% |
| Cc1cnc2nc1Nc1cccc(c1)COC/C=C/COCc1cc(ccc1OCCN1CCOCC1)N2 | binding | 0.1 µM |  | remaining binding | 62% |
| COc1cc(Nc2nccc(-c3cnn4nc(OC)ccc34)n2)cc(C(F)(F)F)c1 | binding, competition with immobilised ligand | 1 µM |  | remaining binding | 83% |
| Nc1ncc2c(n1)-c1c([nH]c3ccc(C4=CCOCC4)cc13)CCC2 | binding, competition with immobilised ligand | 1 µM |  | remaining binding | 100% |
| CN1CCN(Cc2ccc(-c3ccc(CO[C@H]4CCC[C@@H]4NC(=O)c4cc(-c5cnn(C)c5)cnc4N)cc3)cc2)CC1 | enzyme activity, inhibitor | 0.1 µM |  | inhibition | 12% |
| COc1c(Cl)cccc1Nc1c(-c2ccncc2C#C[C@@]2(C)CCCN2C(=O)/C=C/CN(C)C)[nH]c2c1C(=O)NCC2 | binding, competition with immobilised ligand | 3 µM |  | remaining binding | 92% |
